Measured values from different studies.
Each line is one published result; not all experiments were run side by side.

Compound	assay	test system	setting	measurement	result
CN1CC[C@@H](c2c(O)cc(O)c3c(=O)cc(-c4ccc(C(F)(F)F)cc4Cl)oc23)[C@@H]1CO	measured: Vomiting	B-cell malignancies	oral, 150 mg, intermittent dosing	patients with adverse event	0%
CCN(CCO)CCCC(C)Nc1ccnc2cc(Cl)ccc12 (centres unmarked)	measured: Anorexia grade 1	newly diagnosed glioblastoma patients	oral, 200 mg/dose, with radiotherapy and temozolomide	patients with adverse event	66%
COc1c(OCCCN2CCOCC2)ccc2c1N=C(NC(=O)c1cnc(N)nc1)N1CCN=C21	measured: Any	patients with advanced malignancies	intravenous, dose not given, any grade, all cohorts, with: gemcitabine	patients with adverse event	100%
Nc1nc2cc(-c3ccc4ncc(C(=O)N5CCOCC5)n4c3)ccc2o1	measured: Nausea, any cause, all grades	patients with advanced solid tumours	dose not given	patients with adverse events	56%
O=C1Nc2cc3[nH]nc(-c4ccncc4)c3cc2CN1Cc1ccccc1	CTCAE v4.03	advanced solid tumour patients	intravenous, 6.4 mg/kg	patients with dyspepsia	11%
CC(=O)c1c(C)c2cnc(Nc3ccc(C4CCN(CCS(C)(=O)=O)CC4)cn3)nc2n(C2CCCC2)c1=O	–	HR+/HER2- advanced breast cancer patients	oral, dose not given, grade 3/4,, total	patients with AST increased	1.2%
C=CCNc1c(O)cc2c(O)c1C[C@@H](C)C[C@H](OC)[C@H](O)[C@@H](C)/C=C(\C)[C@H](OC(N)=O)[C@@H](OC)/C=C\C=C(/C)C(=O)N2	–	unresectable or metastatic STS, GIST, other	intravenous, 150 mg/m^2	patients with myalgia TEAE	33%
N[C@@H]1c2ccccc2OC12CCN(c1cnc3c(N4CCCc5ncccc54)n[nH]c3n1)CC2	–	advanced solid tumour patients	oral, 100 mg once daily	patients with serious TEAE	14.3%

Some of these lines once more:
Compound	assay	test system	setting	measurement	result
CN1CC[C@@H](c2c(O)cc(O)c3c(=O)cc(-c4ccc(C(F)(F)F)cc4Cl)oc23)[C@@H]1CO	measured: Vomiting	B-cell malignancies	oral, 150 mg, intermittent dosing	patients with adverse event	0%
